Results collected from several papers.
Compare with care: the assays were run in different laboratories. Numbers after ± are the reported error.
KCNJ13 M125R: Inward rectifier potassium channel 13 (KCNJ13, Homo sapiens, UniProt O60928, M125R)
Squalene synthase ERG9: Squalene synthase ERG9 (Saccharomyces cerevisiae, UniProt P29704)
SUMO-activating enzyme subunit 2 with SAE1: SUMO-activating enzyme subunit 2, with SAE1 (Homo sapiens, UniProt Q9UBT2)

By UniProt entry, the sequences of proteins in these tests, tags left out. Residues count along the entry.
UniProt O60928, whole entry M125R: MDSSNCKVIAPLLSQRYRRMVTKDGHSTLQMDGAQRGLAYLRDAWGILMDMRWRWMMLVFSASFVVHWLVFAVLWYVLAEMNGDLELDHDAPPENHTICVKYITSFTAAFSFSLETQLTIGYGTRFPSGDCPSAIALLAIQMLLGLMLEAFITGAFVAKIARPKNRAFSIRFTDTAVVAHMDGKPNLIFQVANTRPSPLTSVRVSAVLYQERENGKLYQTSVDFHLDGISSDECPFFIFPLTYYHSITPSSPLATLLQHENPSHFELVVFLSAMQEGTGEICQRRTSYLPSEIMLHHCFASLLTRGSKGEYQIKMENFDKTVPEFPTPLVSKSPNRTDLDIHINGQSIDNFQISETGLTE
UniProt Q2FV99, 60-206 limits assumed: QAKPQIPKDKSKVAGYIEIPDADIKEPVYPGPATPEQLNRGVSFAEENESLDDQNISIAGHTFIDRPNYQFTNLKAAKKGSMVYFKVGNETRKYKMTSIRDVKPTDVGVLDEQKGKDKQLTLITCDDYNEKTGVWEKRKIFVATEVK
UniProt P03211, 459-607 limits assumed: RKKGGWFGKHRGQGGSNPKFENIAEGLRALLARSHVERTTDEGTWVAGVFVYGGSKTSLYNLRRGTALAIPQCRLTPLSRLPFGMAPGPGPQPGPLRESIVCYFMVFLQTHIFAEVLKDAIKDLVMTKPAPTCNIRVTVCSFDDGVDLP
UniProt Q86U44, 2-580 limits assumed: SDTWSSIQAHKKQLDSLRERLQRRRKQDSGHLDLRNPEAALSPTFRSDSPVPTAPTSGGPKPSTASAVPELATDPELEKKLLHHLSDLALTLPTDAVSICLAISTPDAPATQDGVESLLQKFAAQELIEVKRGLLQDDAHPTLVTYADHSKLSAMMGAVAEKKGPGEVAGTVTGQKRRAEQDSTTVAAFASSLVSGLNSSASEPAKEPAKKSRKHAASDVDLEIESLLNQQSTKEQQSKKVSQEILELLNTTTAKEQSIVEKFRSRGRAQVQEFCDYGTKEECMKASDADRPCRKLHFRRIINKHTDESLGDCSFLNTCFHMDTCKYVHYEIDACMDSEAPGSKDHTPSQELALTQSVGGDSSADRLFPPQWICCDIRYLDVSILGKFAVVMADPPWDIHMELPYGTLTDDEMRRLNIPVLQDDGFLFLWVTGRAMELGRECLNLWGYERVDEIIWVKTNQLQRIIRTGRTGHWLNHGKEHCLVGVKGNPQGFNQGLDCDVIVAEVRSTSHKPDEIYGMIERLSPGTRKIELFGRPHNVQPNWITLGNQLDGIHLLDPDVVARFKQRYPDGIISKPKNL
UniProt O15455, whole entry, looked up: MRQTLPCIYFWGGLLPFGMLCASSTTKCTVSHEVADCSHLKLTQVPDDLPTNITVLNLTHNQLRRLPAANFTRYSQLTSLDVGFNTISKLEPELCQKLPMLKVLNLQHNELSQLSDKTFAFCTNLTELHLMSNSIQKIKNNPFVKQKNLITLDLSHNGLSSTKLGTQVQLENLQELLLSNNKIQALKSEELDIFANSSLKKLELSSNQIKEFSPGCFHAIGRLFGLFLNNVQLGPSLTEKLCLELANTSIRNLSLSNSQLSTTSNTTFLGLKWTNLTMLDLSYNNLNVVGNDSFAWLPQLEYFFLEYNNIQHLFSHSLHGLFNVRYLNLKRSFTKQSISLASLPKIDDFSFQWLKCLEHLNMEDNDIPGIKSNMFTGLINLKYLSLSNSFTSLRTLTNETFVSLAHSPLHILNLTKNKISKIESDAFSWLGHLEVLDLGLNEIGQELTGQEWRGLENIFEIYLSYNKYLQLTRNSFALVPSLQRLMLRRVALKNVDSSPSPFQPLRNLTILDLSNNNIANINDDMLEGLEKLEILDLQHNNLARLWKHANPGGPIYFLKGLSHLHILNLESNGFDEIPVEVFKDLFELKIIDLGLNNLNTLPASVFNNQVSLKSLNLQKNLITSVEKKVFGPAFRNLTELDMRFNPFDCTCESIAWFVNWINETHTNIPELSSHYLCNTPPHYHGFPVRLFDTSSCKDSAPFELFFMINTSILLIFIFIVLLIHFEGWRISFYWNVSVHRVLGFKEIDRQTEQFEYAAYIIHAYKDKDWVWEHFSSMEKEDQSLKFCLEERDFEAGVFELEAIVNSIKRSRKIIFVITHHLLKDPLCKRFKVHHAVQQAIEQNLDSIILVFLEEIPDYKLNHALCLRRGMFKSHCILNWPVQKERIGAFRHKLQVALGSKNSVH
UniProt P21589, 27-574 limits assumed: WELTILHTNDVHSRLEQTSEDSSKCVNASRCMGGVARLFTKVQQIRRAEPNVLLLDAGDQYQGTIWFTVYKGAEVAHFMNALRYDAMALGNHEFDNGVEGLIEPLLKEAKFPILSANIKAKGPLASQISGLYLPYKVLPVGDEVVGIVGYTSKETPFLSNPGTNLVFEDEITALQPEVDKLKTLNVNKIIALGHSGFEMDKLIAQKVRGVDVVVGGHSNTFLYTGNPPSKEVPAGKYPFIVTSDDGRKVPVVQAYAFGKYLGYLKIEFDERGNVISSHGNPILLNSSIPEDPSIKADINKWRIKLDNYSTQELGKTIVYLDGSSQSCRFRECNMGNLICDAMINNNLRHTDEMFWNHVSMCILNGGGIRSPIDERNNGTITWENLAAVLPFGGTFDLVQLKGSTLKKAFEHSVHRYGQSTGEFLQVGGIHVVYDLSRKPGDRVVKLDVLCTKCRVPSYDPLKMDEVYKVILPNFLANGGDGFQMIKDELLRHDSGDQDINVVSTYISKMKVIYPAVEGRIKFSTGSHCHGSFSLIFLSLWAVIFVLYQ
UniProt Q04206, whole entry: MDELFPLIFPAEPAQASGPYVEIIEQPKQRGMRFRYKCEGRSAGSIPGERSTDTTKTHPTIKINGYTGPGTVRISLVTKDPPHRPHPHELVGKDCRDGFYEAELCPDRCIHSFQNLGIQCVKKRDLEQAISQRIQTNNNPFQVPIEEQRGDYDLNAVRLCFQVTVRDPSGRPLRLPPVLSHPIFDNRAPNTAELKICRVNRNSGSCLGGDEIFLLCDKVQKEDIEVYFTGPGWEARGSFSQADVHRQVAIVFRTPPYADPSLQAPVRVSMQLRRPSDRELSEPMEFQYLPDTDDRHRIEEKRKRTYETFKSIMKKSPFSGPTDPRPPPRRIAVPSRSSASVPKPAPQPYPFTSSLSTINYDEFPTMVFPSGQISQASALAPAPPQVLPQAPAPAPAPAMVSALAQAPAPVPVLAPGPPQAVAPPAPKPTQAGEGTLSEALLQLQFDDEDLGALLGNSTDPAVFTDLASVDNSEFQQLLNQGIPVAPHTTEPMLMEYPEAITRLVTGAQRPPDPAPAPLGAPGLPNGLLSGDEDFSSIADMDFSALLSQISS
UniProt Q00960, 27-1482 limits assumed: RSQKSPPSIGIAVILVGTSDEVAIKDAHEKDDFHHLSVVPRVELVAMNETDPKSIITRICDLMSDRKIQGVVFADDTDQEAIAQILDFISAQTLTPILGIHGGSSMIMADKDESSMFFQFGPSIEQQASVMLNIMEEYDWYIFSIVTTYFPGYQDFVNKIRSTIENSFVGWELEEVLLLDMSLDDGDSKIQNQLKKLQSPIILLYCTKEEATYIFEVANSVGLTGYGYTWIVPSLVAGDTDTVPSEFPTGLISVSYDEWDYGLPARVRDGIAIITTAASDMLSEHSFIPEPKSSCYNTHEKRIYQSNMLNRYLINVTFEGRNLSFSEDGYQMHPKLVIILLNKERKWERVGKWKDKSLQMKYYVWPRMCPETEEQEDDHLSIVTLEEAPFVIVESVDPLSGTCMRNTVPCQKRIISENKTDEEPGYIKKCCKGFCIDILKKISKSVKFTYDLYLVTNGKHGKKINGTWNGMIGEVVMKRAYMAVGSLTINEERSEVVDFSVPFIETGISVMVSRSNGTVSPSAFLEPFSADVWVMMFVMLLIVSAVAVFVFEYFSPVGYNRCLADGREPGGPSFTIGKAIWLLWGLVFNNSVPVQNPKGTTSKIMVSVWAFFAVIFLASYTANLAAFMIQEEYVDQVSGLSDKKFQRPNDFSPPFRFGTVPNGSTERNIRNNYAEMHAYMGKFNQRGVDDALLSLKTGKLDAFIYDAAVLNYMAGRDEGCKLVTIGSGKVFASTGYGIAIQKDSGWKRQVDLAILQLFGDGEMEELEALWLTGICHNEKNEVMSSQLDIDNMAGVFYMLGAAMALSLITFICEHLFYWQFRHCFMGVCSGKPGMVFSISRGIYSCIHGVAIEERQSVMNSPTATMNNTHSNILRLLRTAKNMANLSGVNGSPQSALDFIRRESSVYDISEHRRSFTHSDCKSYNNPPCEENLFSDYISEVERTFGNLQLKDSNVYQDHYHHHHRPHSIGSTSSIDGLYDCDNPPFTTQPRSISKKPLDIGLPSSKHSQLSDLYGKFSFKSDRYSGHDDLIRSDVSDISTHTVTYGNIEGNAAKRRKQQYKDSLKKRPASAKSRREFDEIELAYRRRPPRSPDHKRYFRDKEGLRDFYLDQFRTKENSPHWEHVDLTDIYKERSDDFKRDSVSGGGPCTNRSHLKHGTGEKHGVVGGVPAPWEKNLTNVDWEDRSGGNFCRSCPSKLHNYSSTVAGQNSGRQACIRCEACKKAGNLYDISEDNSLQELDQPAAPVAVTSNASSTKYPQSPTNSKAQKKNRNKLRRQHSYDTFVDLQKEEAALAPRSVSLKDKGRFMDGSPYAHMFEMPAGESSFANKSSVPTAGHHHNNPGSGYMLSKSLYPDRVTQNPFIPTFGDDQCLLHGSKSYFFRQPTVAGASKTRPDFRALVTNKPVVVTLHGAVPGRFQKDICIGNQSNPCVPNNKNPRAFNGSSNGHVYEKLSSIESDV
UniProt P44969, 26-1014 limits assumed: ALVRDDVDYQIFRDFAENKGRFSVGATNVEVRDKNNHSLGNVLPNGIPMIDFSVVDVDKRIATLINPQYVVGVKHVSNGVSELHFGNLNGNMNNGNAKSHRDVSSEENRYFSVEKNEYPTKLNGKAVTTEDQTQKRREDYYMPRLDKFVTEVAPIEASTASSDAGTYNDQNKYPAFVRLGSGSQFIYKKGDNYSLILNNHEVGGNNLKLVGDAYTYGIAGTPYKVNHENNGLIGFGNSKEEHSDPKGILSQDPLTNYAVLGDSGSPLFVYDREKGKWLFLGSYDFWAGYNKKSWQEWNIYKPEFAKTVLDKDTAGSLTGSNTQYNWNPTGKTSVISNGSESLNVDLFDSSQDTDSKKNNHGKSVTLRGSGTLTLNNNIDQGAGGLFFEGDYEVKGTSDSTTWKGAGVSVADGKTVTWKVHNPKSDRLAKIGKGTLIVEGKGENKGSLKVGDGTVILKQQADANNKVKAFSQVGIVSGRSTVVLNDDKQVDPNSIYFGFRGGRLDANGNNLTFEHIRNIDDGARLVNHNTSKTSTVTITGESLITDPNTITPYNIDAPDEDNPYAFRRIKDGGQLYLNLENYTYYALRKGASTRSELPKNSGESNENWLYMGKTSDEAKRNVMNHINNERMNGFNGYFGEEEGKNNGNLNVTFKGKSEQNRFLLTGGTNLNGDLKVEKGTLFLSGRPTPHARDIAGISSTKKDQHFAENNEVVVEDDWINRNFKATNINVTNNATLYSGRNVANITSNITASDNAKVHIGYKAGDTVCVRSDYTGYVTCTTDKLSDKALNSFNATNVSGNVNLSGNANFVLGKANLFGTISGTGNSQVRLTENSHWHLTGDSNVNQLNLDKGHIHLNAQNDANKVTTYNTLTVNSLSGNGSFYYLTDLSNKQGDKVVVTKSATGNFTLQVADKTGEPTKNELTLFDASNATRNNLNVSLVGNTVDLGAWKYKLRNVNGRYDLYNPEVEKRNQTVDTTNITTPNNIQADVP

`COc1ccc(Sc2cc(C(=O)N3Cc4ccccc4C3)ccc2O)cc1OC` gave an IC50 of roughly 0.53 µM (HSP90AA1 (Homo sapiens, UniProt P07900); binding, fluorescence polarization; together with: FITC-geldanamycin).
With `NCCNCCSc1ccccc1` the unbound concentration was 18860 ± 90 ng/mL (ultrafiltration; mouse plasma, female; 25 µg/mL, 60 min, 37 °C).
The IC50 of `CC(C)(C)c1ccc(C(=O)Nc2cc(Cl)c(Cl)cc2C(=O)O)cc1` is reported as 1.36 ± 0.06 µM (Phosphotransferase (Trypanosoma brucei, UniProt Q38C42); hexokinase activity, inhibitor).
For `O=C(O)CC1(n2cnnn2)CCCCC1`, the IC50 was greater than 1000 µM (blaNDM-1 (Klebsiella pneumoniae, UniProt C7C422); 10 min preincubation, together with: FC5 fluorogenic substrate).
The IC50 of `O=c1[nH]c2sc3c(c2c(=O)n1O)CCCC3` is reported as 3.6 ± 0.5 µM (Gag-Pol polyprotein, integrase (gag-pol, Human immunodeficiency virus 1, UniProt P03366); integrase strand transfer, inhibitor).
`O=[N+]([O-])c1cc(N=Nc2c(O)ccc3cc(S(=O)(=O)O)ccc23)c(O)c([N+](=O)[O-])c1` has an IC50 of 68.9 µM (Bcl-2-related protein A1 (Mus musculus, UniProt Q07440, C113S/P104K); binding, inhibitor, fluorescence polarization competition; 3 µM Bfl-1/A1 protein, together with: 375 nM FITC-Noxa peptide).
For `C[C@H](CS)C(=O)N[C@@H](Cc1c[nH]c2ccccc12)C(=O)O`, “MIC of meropenem” read 8 µg/mL (Klebsiella pneumoniae; IMP-1 producing; 25 µM, together with: meropenem).
With `O=c1ccn([C@@H]2O[C@H](COP(=O)(O)OP(=O)(O)OP(=O)(O)O)[C@@H](O)[C@]2(F)Br)c(=O)[nH]1` the IC50 was greater than 100 µM (DNA polymerase beta (POLB, Homo sapiens, UniProt P06746); polymerase activity, inhibitor; 37 °C).
`COc1ccc(CN[C@@H]2CO[C@H](C(c3ccccc3)c3ccccc3)C[C@H]2O)cc1` gave an inhibition of -13.7% (HRH4 (Homo sapiens, UniProt Q9H3N8); radioligand binding; 10 µM, together with: [3H]histamine).
`NCc1ccc(-c2ncc(OCC3CCNCC3)nc2-c2ccc(-c3ccoc3)cc2)cc1` has an IC50 of 0.22 µM (Genome polyprotein, NS2B-NS3 protease (ZIKV, UniProt A0A024B7W1); enzyme activity, inhibitor; binary NS2B-NS3 protease).
The IC50 of `CNc1ccc2c(n1)sc1c(N3CCNCC3)nc(NC)nc12` is reported as 1.1 ± 0.2 µM (Beta-glucuronidase (Lachnospira eligens, UniProt C4Z6Z2); enzyme activity, inhibitor).
`Oc1c(CN2CCC(NCc3ccccc3)CC2)cc(Cl)c2cccnc12` has an IC50 of 12.4 µM (KCNJ13 M125R; ion current, inhibitor, thallium flux; T-REx-HEK293).
`NC(=O)c1cc(Sc2ccc(OCCN3CCOCC3)cc2)nc2ccccc12` has an IC50 of 7.3 µM (CDPK1 (Toxoplasma gondii, UniProt Q9BJF5); kinase activity, inhibitor, ELISA; together with: syntide-2 substrate, ATP 25 µM).
`C=CC(=O)Nc1cc(-n2c(=O)ccc3cnc4ccc(-c5cn[nH]c5)cc4c32)ccc1C` gave a remaining binding of 56% (EGFR (Homo sapiens, UniProt P00533); KinomeScan binding; 1 µM).
`NC[C@@H](NC[C@@H]1CCCN1C[C@@H](CO)NC[C@@H](NCCC1CC2CCC1C2)c1ccccc1)c1ccccc1` (stereo partly shown) — result for “potentiation of amikacin”: 1 fold (Klebsiella pneumoniae; bacterial growth; 8 µM, fold shift of IC90, together with: amikacin).
For `O=C(NC1CCN(Cc2cc(Cl)c3cccnc3c2O)CC1)c1ccccc1`, the IC50 was 8.3 µM (KCNJ13 M125R; ion current, inhibitor, thallium flux; T-REx-HEK293).
For `OCCNc1nc(N2CCNCC2)c2sc3nc(-c4ccccc4)ccc3c2n1`, the IC50 was 1.3 ± 0.2 µM (Beta-glucuronidase (Streptococcus agalactiae serotype V, UniProt Q8E0N2); enzyme activity, inhibitor).
For `Cc1cc(N)c2ccccc2[n+]1CCCCCCCCCCCCCC[n+]1c(C)cc(N)c2ccccc21`, the IC50 was 8.26 µM (GBA1 (Homo sapiens, UniProt P04062, R534H); enzyme activity, inhibitor; pH 5.9, together with: resorufin β-glucoside 30 µM).
For `O=C(C=C(O)c1cc(Cc2ccc(F)cc2F)cn(Cc2ccccc2F)c1=O)C(=O)N[C@H]1CCC[C@@H]1O` (relative stereo), the IC50 was 0.048 µM (Gag-Pol polyprotein, integrase (gag-pol, Human immunodeficiency virus type 1 group M subtype B, UniProt P04585); integrase strand transfer, inhibitor).
`CN(C)c1ccc2c(n1)sc1c(N3CCNCC3)ncnc12` gave an IC50 of 2.9 ± 0.6 µM (Beta-glucuronidase (Streptococcus agalactiae serotype V, UniProt Q8E0N2); enzyme activity, inhibitor).
`O=C(CNC(=O)C1CCCCC1)OC(C(=O)c1ccccc1)c1ccccc1` (stereo not shown) has an IC50 of 0.03 µM (Cruzipain (Trypanosoma cruzi, UniProt P25779); enzyme activity, inhibitor).
`NC(=O)COc1c(SSc2cnn(-c3ccccc3)c(=O)c2OCC(N)=O)cnn(-c2ccccc2)c1=O` gave an IC50 of 22 ± 2 µM (srtA (Staphylococcus aureus, UniProt Q2FV99); inhibitor).
`O=C(O)c1cccc(C#Cc2ccccc2)c1-c1ccc2cc[nH]c2c1` has an IC50 of 0.927 µM (Epstein-Barr nuclear antigen 1 (Epstein-Barr virus, UniProt P03211); AlphaLISA displacement; together with: biotinylated probe VK-2114).
`CC(C)=CCC/C(C)=C/CCCCN1[C@@H](COP(=O)(O)OP(=O)(O)O)[C@]1(C)CC/C=C(\C)CCC=C(C)C` (relative stereo) has an IC50 of 1.9 ± 0.2 µM (Squalene synthase ERG9; enzyme activity, inhibitor; pH 7.2, together with: 1.5 mM pyrophosphate, 100 µM [3H]FPP).
`COc1cc2nc(-c3ccc(N)cc3)nc(NCCSC[C@H]3O[C@@H](n4cnc5c(N)ncnc54)[C@H](O)[C@@H]3O)c2cc1OC` gave an IC50 of 7.4 µM (N6-adenosine-methyltransferase catalytic subunit, with METTL14 (METTL3, Homo sapiens, UniProt Q86U44); methyltransferase activity, inhibitor, MTase-Glo; together with: RNA substrate).
For `Cc1c2ccncc2c(C)c2c1[nH]c1ccc(C(=O)NC(C)C)cc12`, the IC50 was 0.09 ± 0.01 µM (Toll-like receptor 3 (Homo sapiens, UniProt O15455); reporter gene, SEAP reporter; HEK-Blue hTLR3; together with: poly(I:C)).
`C=CCC(Nc1ccccc1)C12C=CC(O1)C(C(=O)OC)=C2C(=O)OC` (stereo not shown) has an IC50 of 1.33 µM (SUMO-activating enzyme subunit 2 with SAE1; SUMOylation, inhibitor, AlphaScreen; together with: SUMO1-RanGAP1 conjugation).
For `O=C(NC1CCN(Cc2cc(Cl)c3cccnc3c2O)CC1)c1cccc(F)c1`, the IC50 was 5.7 µM (KCNJ13 M125R; ion current, inhibitor, thallium flux; T-REx-HEK293).
`CCCCCCCCCCCN1[C@@H](COP(=O)(O)CP(=O)(O)O)[C@]1(C)CC/C=C(\C)CCC=C(C)C` (relative stereo) — result for IC50: “no inhibition” (Squalene synthase ERG9; enzyme activity, inhibitor; pH 7.2, tetrabutylammonium salt, together with: 100 µM [3H]FPP, no added pyrophosphate).
For `Nc1c(S(=O)(=O)Oc2ccccc2NC(=O)Cc2c[nH]c3ccccc23)ccc2ccccc12`, the IC50 was 1.17 ± 0.13 µM (5'-nucleotidase (NT5E, Homo sapiens, UniProt P21589); malachite green; human).
For `C[C@@]12C3=C(C(=O)c4occ(c41)[C@@H](O)[C@@H]1O[C@@H]12)[C@@H]1CCC(O)[C@@]1(C)CC3` (stereo partly shown), the IC50 was 27 µM (RELA (Homo sapiens, UniProt Q04206); DNA binding, inhibitor, ELISA-type binding; HeLa nuclear extract; together with: TNF-α).
`CC1=C([C@H](O)CC(=O)O[C@H](C)[C@@H](C)[C@H](O)CC(=O)[C@@H](C)[C@@H](O)CCCCCOC(=O)CC(C)C)C(=O)OC1=O` gave an IC50 of 0.1 ± 0.01 µM (PPP1CA (Oryctolagus cuniculus, UniProt P62139); enzyme activity, inhibitor, malachite green; 30 °C, together with: phosphopeptide KRpTIRR 40 µM).
`CC(CCN[C@H](CN[C@H](CO)CN1CCC[C@H]1CN[C@H](CN)c1ccccc1)c1ccccc1)c1ccccc1` (stereo partly shown): “potentiation of amikacin” 2.6 fold (Klebsiella pneumoniae; bacterial growth; 24 µM, fold shift of IC50, together with: amikacin).
With `COC(=O)C1=C(C(=O)OC)C2([C@@H](C)Nc3ccccc3)C=CC1O2` (stereo partly shown) the IC50 was 7.67 µM (SUMO-activating enzyme subunit 2 with SAE1; SUMOylation, inhibitor, AlphaScreen; together with: SUMO1-RanGAP1 conjugation).
`CC(C)C[C@@H](NC(=O)[C@H](NC(=O)[C@H]1CCCN1)[C@H](C)O)C(=O)N[C@H](Cc1c[nH]cn1)C(=O)N[C@@H](C(=O)N[C@H](Cc1c[nH]cn1)C(=O)N[C@H](CC(N)=O)C(=O)N[C@H](CCCNC(=N)N)C(=O)N[C@H](CCCNC(=N)N)C(=O)N[C@H](CCCNC(=N)N)C(=O)N[C@H](CCCNC(=N)N)C(=O)N[C@H](CCCNC(=N)N)C(N)=O)[C@H](C)O`: “time above LLOQ” no more than 48 h (healthy human, plasma; oral, 320 mg single dose, LLOQ 0.5 ng/mL).
With `N=C(N)c1ccc(NCCCCCNc2ccc(C(=N)N)cc2)cc1` the IC50 was 20.6 ± 5.4 µM (Glutamate NMDA receptor; Grin1/Grin2b, ifenprodil binding site (Grin1/Grin2b, Rattus norvegicus, UniProt P35439+Q00960); pH 7.4).
For `COC(=O)C1=C(C(=O)OC)C2([C@@H](Cc3ccccc3)Nc3ccc(OC)cc3)C=CC1O2` (stereo partly shown), the IC50 was 4.79 µM (SUMO-activating enzyme subunit 2 with SAE1; SUMOylation, inhibitor, AlphaScreen; together with: SUMO1-RanGAP1 conjugation).
For `CNc1nc(N2CCNCC2)c2sc3nc(-c4ccccc4)ccc3c2n1`, the IC50 was 0.6 ± 0.1 µM (Beta-glucuronidase (Lachnospira eligens, UniProt C4Z6Z2); enzyme activity, inhibitor).
`O=C(Oc1nsnc1N1CCCCC1)N1CCOCC1` gave an IC50 of 3.7 ± 0.3 µM (Immunoglobulin A1 protease autotransporter (Haemophilus influenzae, UniProt P44969); IgA1 cleavage, inhibitor, sandwich ELISA; 1 h preincubation, together with: 5 nM human IgA1).
With `O=C(NO)c1c(F)cccc1F` the IC50 was greater than 20 µM (Histone deacetylase 6, CD2 catalytic domain (hdac6, Danio rerio, UniProt F8W4B7); enzyme activity, inhibitor, fluorogenic; 30 min, together with: Ac-RHK(Ac)K(Ac)-AMC).
For `N=C(N)c1ccc(OCCOCCOc2ccc(C(=N)N)cc2)cc1`, the IC50 was 3.41 ± 0.52 µM (Grin1/Grin2a/Grin2b, MK-801 channel binding site (Rattus norvegicus, UniProt P35439+Q00959+Q00960); pH 7).
The IC50 of `O=C1NC(=O)C2(Cc3ccccc32)N1` (racemic) is reported as 3.1 µM (GABA-A receptor alpha-1/beta-3 (GABRA1/GABRB3, Homo sapiens, UniProt P14867+P28472); [3H]muscimol binding; alpha1beta3 receptor).
`CN1CC[C@]23c4c5ccc(O)c4O[C@H]2c2ncc(-c4ccc(Cl)cc4)cc2C[C@@]3(OCCCc2ccccc2)[C@H]1C5` — result for “time to zero efficacy”: 2.9 days (CD-1 mouse neuropathy model; sc, 3.2 mg/kg, naltrindole 5 min before, together with: naltrindole 10 mg/kg ip).
With `CN1CCN(C(c2ccccc2)c2ccc(Cl)cc2)CC1` (stereo not shown) the IC50 was 227 ± 29 µM (RNMT (Homo sapiens, UniProt O43148); enzyme activity, inhibitor).
With `Cc1ccc(CN2C(=O)C(O)=C(C(=O)c3cccs3)C2c2ccc(C)cc2)cc1` (racemic) the IC50 was 5.17 µM (USP2 (Homo sapiens, UniProt O75604); enzyme activity, inhibitor, MALDI-TOF; 35 min preincubation, 30 °C).
The uptake of `[11CH3]Nc1ccc(C(=O)C2CCN(C3Cc4ccccc4CC3O)CC2)cc1` (single isomer, unassigned) is reported as 0.293 %ID/g (Sprague-Dawley rat, thalamus; 30 min).

Some of these lines once more:
With `COC(=O)C1=C(C(=O)OC)C2([C@@H](C)Nc3ccccc3)C=CC1O2` (stereo partly shown) the IC50 was 7.67 µM (SUMO-activating enzyme subunit 2 with SAE1; SUMOylation, inhibitor, AlphaScreen; together with: SUMO1-RanGAP1 conjugation).
The IC50 of `O=c1[nH]c2sc3c(c2c(=O)n1O)CCCC3` is reported as 3.6 ± 0.5 µM (Gag-Pol polyprotein, integrase (gag-pol, Human immunodeficiency virus 1, UniProt P03366); integrase strand transfer, inhibitor).
`CC(C)C[C@@H](NC(=O)[C@H](NC(=O)[C@H]1CCCN1)[C@H](C)O)C(=O)N[C@H](Cc1c[nH]cn1)C(=O)N[C@@H](C(=O)N[C@H](Cc1c[nH]cn1)C(=O)N[C@H](CC(N)=O)C(=O)N[C@H](CCCNC(=N)N)C(=O)N[C@H](CCCNC(=N)N)C(=O)N[C@H](CCCNC(=N)N)C(=O)N[C@H](CCCNC(=N)N)C(=O)N[C@H](CCCNC(=N)N)C(N)=O)[C@H](C)O`: “time above LLOQ” no more than 48 h (healthy human, plasma; oral, 320 mg single dose, LLOQ 0.5 ng/mL).
`COc1ccc(CN[C@@H]2CO[C@H](C(c3ccccc3)c3ccccc3)C[C@H]2O)cc1` gave an inhibition of -13.7% (HRH4 (Homo sapiens, UniProt Q9H3N8); radioligand binding; 10 µM, together with: [3H]histamine).
For `CNc1nc(N2CCNCC2)c2sc3nc(-c4ccccc4)ccc3c2n1`, the IC50 was 0.6 ± 0.1 µM (Beta-glucuronidase (Lachnospira eligens, UniProt C4Z6Z2); enzyme activity, inhibitor).
